{"data": "Measurements pooled from the literature", "note": "Parts stem from different laboratories: compare values within a part only."}
{"data": "Study 1", "target": "RNA binding protein fox-1 homolog 2, RRM domain, GST-SBP tag (RBFOX2, Homo sapiens, UniProt O43251-10, residues 100-194)", "technique": "RNA Bind-n-Seq", "form": "RNA", "medium": "in vitro", "concentration": "365 nM", "notes": "natural RNA segment, single round, ends assumed", "baseline": "no-protein control", "direction": "higher = stronger binding", "Construct (chain)": "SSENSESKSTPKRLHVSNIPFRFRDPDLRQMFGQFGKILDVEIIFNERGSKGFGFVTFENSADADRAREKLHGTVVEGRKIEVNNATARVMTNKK"}
{"Strand": "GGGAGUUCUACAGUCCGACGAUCCCCGUUCAUGGUUGAUCUCCACGAGCAGGUGCACCAGGGACCUGUCCCUCUGUCCUACACGGUCACCACAGUGACGACCCAAGGCUUCCCCUUGCCUACAGGCCAGCACAUGGAAUUCUCGGGUGCCAA", "RBNS enrichment (R)": 0.164}
{"Strand": "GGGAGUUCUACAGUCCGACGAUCAUGUGUAGCUGCACUGCCUUUGUCCACUAAGACCUCUAGUUUUUGGUGUAAAAGGGUCCCUGGUUUCCCUAUCAGCUAUAAUUUUUAUAUUUAGAAACUCAAAAUCAUGUUGGAAUUCUCGGGUGCCAA", "RBNS enrichment (R)": 0.356}
{"Strand": "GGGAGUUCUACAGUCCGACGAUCAGACGGGAACGGAAGCAGUUCCGCAGGACUGGCGCGGAGGCUCGCCACCCACCCACAGAUUUGGUUCGGUUUGGUUGUUUACCAGAUCACAUGAUGUCGAUGUCCCAAGGUGGAAUUCUCGGGUGCCAA", "RBNS enrichment (R)": 0.528}
{"Strand": "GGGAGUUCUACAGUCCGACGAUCCCUUAACUCAGACCAGGGCCAUGCCUUGCGGGGAGCAGAGAGUGUGUGCACCACACCAAAGGGAGCCCUCCGUUAGUUAGAGGCCAGAGGACGAUGCCAGCCAGAGCCCCUGGAAUUCUCGGGUGCCAA", "RBNS enrichment (R)": 0.468}
{"Strand": "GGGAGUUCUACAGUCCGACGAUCUGGCAGCUGGCAUCGUGUCGCUUUAUCUGCCCCCGCACAGUUUGCUUUGUACGUCUGCCAAGAAUCUUCCAGUUAUUAGCAAACUCAGACGAAUGUACCGCCAGUAUUAUUGGAAUUCUCGGGUGCCAA", "RBNS enrichment (R)": 0.723}
{"Strand": "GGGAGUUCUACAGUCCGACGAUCGAGAAAAUAAUUUUUCUCAUUUAAUUAUAGAAAUUACCUUCAAACAGAUUUUGUGUUCUUUGGCCCUUCAAAUACUGGUGUUACAUUGUUGCUGCAGAUAAAUGAUGAUUUGGAAUUCUCGGGUGCCAA", "RBNS enrichment (R)": 0.707}
{"Strand": "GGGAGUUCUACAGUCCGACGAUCCCAUGAAGAGGGCCGUGGUGAGUUCCCGAGAAUUGUCUCUCUUUCAGCAGAGAGGUGAGGGACUCAGACAUAUAUCUAAGUUGAAUAGCAUCCCCAUCGCAGCUGUAAGAUGGAAUUCUCGGGUGCCAA", "RBNS enrichment (R)": 0.63}
{"Strand": "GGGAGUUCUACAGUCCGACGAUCAAAGGCCGUUUUAUUAGAAAUUUAGGCUUUCAUGCCUGUAGACCCUAGUUAUUAAAUGCACUAAACAAACAACUGCAUUUAAAGCAUUGGCCUUAGCAGAAGUGACUGACUGGAAUUCUCGGGUGCCAA", "RBNS enrichment (R)": 0.255}
{"data": "Study 2", "target": "human cyclin A2", "effect on": "peptide binding", "technique": "competitive growth sequencing", "form": "peptide", "organism": "Saccharomyces cerevisiae", "strain": "cyclin A2-Cln2 fusion strain", "concentration": "concentration not given", "notes": "mutational scanning library 1", "baseline": "unfused Cln2 strain", "direction": "direction not given"}
{"Molecule": "GSALKKLFTSTGL", "binding score": 0.991}
{"Molecule": "GSPAKKLFTSTGL", "binding score": -0.367}
{"Molecule": "ASPLKKLFTSTGL", "binding score": 0.282}
{"data": "Study 3", "target": "Ras GTPase-activating protein-binding protein 1, C-terminal RGG region (G3BP1, Homo sapiens, UniProt Q13283)", "technique": "RNA Bind-n-Seq", "form": "RNA", "medium": "in vitro", "concentration": "1 µM", "notes": "whole 134-nt RNA, ends assumed", "added": "150 mM KCl", "baseline": "input library", "direction": "higher = stronger binding", "sequence of UniProt Q13283 (whole entry, looked up)": "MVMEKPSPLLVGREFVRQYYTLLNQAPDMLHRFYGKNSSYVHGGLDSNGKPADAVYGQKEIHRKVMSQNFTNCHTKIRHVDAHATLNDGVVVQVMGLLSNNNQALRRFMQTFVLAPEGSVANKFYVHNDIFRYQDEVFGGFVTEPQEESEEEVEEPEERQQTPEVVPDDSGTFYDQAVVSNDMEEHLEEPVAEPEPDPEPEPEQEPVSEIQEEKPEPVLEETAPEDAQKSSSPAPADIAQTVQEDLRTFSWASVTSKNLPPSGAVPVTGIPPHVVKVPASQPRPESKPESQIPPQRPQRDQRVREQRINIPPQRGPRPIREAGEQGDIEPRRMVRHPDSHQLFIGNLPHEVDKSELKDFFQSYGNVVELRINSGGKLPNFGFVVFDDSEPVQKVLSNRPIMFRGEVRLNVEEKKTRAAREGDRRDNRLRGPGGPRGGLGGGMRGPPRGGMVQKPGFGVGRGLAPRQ"}
{"Strand": "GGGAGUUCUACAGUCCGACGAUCCACAGACAACACGCACCCACACAGACACAGAGGGAAGGGGUUGGGAUGGGGACAGGGUGCACAGCAGGGAAAGGUAGGACCCCAGCCCCUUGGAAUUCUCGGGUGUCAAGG", "log2 enrichment": -0.156}
{"Strand": "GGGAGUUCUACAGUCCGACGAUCCACAGACAACACGCACCCACACAGACACAGAGGGAAGGGGUUGGGAUGGGGACUGGGUGCACAGCAGGGCGGGGUAGGACCCCAGCCCCUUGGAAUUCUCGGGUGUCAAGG", "log2 enrichment": 1.13}
{"Strand": "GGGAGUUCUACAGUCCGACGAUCCCAGAGCCAGAGAGCUUGGGCCCUGGGACGCCUGGGUUCCCCGAGCAGGAGGAAGACGAACUUCACCGCACCCUGGGCGUGGAGCGGUUUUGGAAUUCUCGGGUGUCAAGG", "log2 enrichment": -1.29}
{"Strand": "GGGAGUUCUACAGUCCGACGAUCCAAGUCCUGUGCUACACAUCGUAUGUACCGAAUCGGGAAAGGGAAAGGGUUUGGGAAAGUAUUAUGUUACGCCGUUCGGAUCUGCACUUCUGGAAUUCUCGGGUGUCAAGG", "log2 enrichment": 1.73}
{"Strand": "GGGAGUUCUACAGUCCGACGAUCGCAGGAAGUAAAAACAAAUGGAAAUGCUUCGGAUAGUGGCAGGGGUGGGGGUUGCUAAGGAAAGGGUGGGAUAGGAGUGGGUAAAGAGUUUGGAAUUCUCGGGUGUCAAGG", "log2 enrichment": 1.86}
{"Strand": "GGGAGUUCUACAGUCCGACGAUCUCAAGUCCUGUGCUACACAUCGUAUGUACCGAAUCGGGAAAGGAAAGGAAAGGGAAAGUAUUAUGUUACGCCGUUCGGAUCUGCACUUCCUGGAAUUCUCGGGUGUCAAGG", "log2 enrichment": -1.44}
{"Strand": "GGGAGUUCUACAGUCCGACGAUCUGGGAGGUGGAUUUUGUUUAUUUGUUUAGCUCAUUUCCAGGGGUGGGAAUUUUUUUUUAAUAUGUGUCAUGAAUAAAGUUGUUUUUGAAAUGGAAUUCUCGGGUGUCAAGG", "log2 enrichment": 2.91}
{"Strand": "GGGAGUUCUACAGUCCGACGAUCUCCUGUGCUACACAUCGUAUGUACCGAAUCGGUUUUUUGGGUUUUUUGGUUUUUUGGGGAAAGUAUUAUGUUACGCCGUUCGGAUCUGCAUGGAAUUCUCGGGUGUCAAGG", "log2 enrichment": -1.29}
{"Strand": "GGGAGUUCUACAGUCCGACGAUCCCUGUGCUACACAUCGUAUGUACCGAAUCGGGGUUUUUUUGGGGAAAAAGGGGUUUGGGGAAAGUAUUAUGUUACGCCGUUCGGAUCUGCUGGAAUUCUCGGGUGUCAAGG", "log2 enrichment": 0.427}
{"data": "Study 4", "target": "Interferon regulatory factor 5, full length, phosphomimetic (IRF5, Homo sapiens, UniProt Q13568-2, residues 1-514, K96S/S451D/S453D/S456D/S462D)", "technique": "protein-binding microarray", "form": "double-stranded DNA, one strand shown", "medium": "in vitro", "concentration": "250 nM", "notes": "60-bp whole probe", "added": "salmon DNA 0.4 mg/ml", "baseline": "random background probes", "direction": "higher = stronger binding", "shared flanks, not repeated": "GCCTAGCAC … GTCTTGATTCGCTTGACGCTGCTG"}
{"Strand": "GACGATCTCAGACTGGAAACGTGCTAG", "log fluorescence [z-score]": -0.342}
{"Strand": "GACGGTTTCCTACTGCTGATGTGCTAG", "log fluorescence [z-score]": 0.393}
{"Strand": "TCACTCATACATCTGGGACTGTGCTAG", "log fluorescence [z-score]": -0.0689}
{"Strand": "GACGGACTGCTTATCATGACGTGCTAG", "log fluorescence [z-score]": -0.281}
{"Strand": "GACGGTATCGGTATCGGGTCGTGCTAG", "log fluorescence [z-score]": 7.32}
{"Strand": "TTAGGACTGAGTCTCGGTTAGTGCTAG", "log fluorescence [z-score]": 0.613}
{"Strand": "TGAAGACTTTCTTTCAAATGGTGCTAG", "log fluorescence [z-score]": 1.92}
{"Strand": "TTAGATTTCAGTCTAGATTAGTGCTAG", "log fluorescence [z-score]": 2.55}
{"Strand": "TTAGTTATCGGTCTCGGTTAGTGCTAG", "log fluorescence [z-score]": 6.75}
{"Strand": "TCATCTTTATGTACTCTCACTGTGCTA", "log fluorescence [z-score]": 1.14}
{"Strand": "CCTAGTTGTACTTTCTATCTGTGCTAG", "log fluorescence [z-score]": 3.03}
{"Strand": "GACGGACTGGGGACTGGAGACGTGCTA", "log fluorescence [z-score]": -0.76}
{"Strand": "TTAGGTATCCTACGGCTTTAGTGCTAG", "log fluorescence [z-score]": -0.151}
{"Strand": "GGAAGTATGACTCTGCCTCTGTGCTAG", "log fluorescence [z-score]": 0.0986}
{"Strand": "TCATTTTGCTTTCTTTAACTGTGCTAG", "log fluorescence [z-score]": 2.32}
{"Strand": "GACGGTTTCGGGACTGGGGACGTGCTA", "log fluorescence [z-score]": 4.6}
{"Strand": "TATCTTATGATATATATAATAGTGCTA", "log fluorescence [z-score]": 1.43}
{"Strand": "GACGGTTTCGACTATCGGGTCGTGCTA", "log fluorescence [z-score]": 7.78}
{"Strand": "TCATCATTGTTTTTCATACTGTGCTAG", "log fluorescence [z-score]": 1.43}
{"note": "A few entries again (study 1):"}
{"Strand": "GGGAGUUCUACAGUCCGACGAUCCCAUGAAGAGGGCCGUGGUGAGUUCCCGAGAAUUGUCUCUCUUUCAGCAGAGAGGUGAGGGACUCAGACAUAUAUCUAAGUUGAAUAGCAUCCCCAUCGCAGCUGUAAGAUGGAAUUCUCGGGUGCCAA", "RBNS enrichment (R)": 0.63}
{"Strand": "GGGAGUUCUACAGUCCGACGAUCAGACGGGAACGGAAGCAGUUCCGCAGGACUGGCGCGGAGGCUCGCCACCCACCCACAGAUUUGGUUCGGUUUGGUUGUUUACCAGAUCACAUGAUGUCGAUGUCCCAAGGUGGAAUUCUCGGGUGCCAA", "RBNS enrichment (R)": 0.528}
